Measured values gathered from unrelated publications.
A part holds a random share of what one study measured. “And” joins repeats or separate records; there may be more than shown. Substitutions count along the parent as printed.

Block 1
Target: ABI1, truncated, D143A, DHFR fusion (Arabidopsis thaliana, UniProt P49597)
Technique: DHFR PCA, dose-response
Sample: yeast
Setting: Hill fit, mean, not affinity
Added: (+)-ABA, dose series
Direction: lower = more sensitive
Starting sequence: PYL1, truncated, DHFR fusion (Arabidopsis thaliana, UniProt Q8VZS8); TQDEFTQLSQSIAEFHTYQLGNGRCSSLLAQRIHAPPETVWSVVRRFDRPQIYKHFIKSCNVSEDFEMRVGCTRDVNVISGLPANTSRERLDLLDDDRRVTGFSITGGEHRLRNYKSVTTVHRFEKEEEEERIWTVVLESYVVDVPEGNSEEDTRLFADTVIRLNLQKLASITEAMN
Substitution | ABA EC50
P83M | 383 µM
V44S | 412 µM
D92E | 8.42 µM
R32K | 2.41 µM
I105C | 19.1 µM
N177I | 2.64 µM
T173L | 16 µM
V145C | 4.45 µM
R113T | 1.92 µM
E67D | 2.78 µM
Q10G | 2.22 µM
R88W | 20.8 µM

Block 2
Target: RNA binding protein fox-1 homolog 2, RRM domain, GST-SBP tag (RBFOX2, Homo sapiens, UniProt O43251-10, residues 100-194)
Technique: RNA Bind-n-Seq
Form: RNA
Sample: in vitro
Tested at: 365 nM
Setting: natural RNA segment, single round, ends assumed
Baseline: no-protein control
Direction: higher = stronger binding
Shared flanks, not repeated: GGGAGUUCUACAGUCCGACGAUC … UGGAAUUCUCGGGUGCCAA
Strand | RBNS enrichment (R)
UUUCCACAGGCAGCAUCCCAAGGUUCAAUAAGGCCUUAUUUAACAAGCAAGCAAAAUGCAAACCAAACCAUUAUUCAUUUAUUGGCUUAAGUAUGCUUUCUCCUGAAAAC | 0.389
CUAUUAUAUUAUGUAGUCCGUUAACACUACUUAAAAGUUUAGGGUUUUCUCUUGGUUGUAGAGUGGCCCAGAAUUGCAUUCUGAAUGAAUAAAGGUUAAAAAAAAAUCCC | 0.577
GGUCCCAUCUACUGUGGUCCACUGAGCCCAAUUUGAUAUGUAAAUACACCUCAAAUUUGGAAAGUUGCCCCAUCUCUCCCCCCCAACCCAUGCCCCUGCUCACCUCUGCC | 0.625
CUGUCUCCUUGGGUGUCUGCUCUGCAUGGCACUGUAAAGCUUCGGUAUUUUGAGUGUUCUUCUUUCUUAGACCCACCCGCGGGAACCGUUCACAGGUACCCUCCCUCGGG | 0.48
AUGAUUGCUCGAUCACUUUAGAUAGUAAGUAGGCUAUUUACAUAAUGAGCUAACCUCAGAGAGAAGCCCUGGAGUCUAAGAUUGUUGUAAAAAUUAAUUUAUUUGUGUUA | 0.447
CACACAAGUGAAAAGCUCCCUGCUUUGAAAACAGGACAUGUUGACAGGCAGCAUGGUAUGUUUUUAGCCUUUGUUACAGUUUUAGCAACAUUGAUGUCUAAGAGGGGCCG | 1.45
GGCUUAGGUUACCCUAGCUGGUUUUGUCCGUGUAAACAUUGAAAGUAUUAUAUUUUUAUAGAAAUGUUUAUUUUUAAUGAUGUAAGAAAAAUUUUCCUUAGGCCGCAGAA | 0.664
GUAAAUAAAAUGGAUGUAAUAUAAGUUGUAAGUAACGUUGUCAAAACUCUGAUCCCGAUGGAGGCUGCACGCCUCCCCCACCCCAUGAUAGCAUCUGUGUGUAUUAAUUC | 0.788

Block 3
Target: Ras GTPase-activating protein-binding protein 1, full length (G3BP1, Homo sapiens, UniProt Q13283)
Chain of UniProt Q13283 (whole entry, looked up): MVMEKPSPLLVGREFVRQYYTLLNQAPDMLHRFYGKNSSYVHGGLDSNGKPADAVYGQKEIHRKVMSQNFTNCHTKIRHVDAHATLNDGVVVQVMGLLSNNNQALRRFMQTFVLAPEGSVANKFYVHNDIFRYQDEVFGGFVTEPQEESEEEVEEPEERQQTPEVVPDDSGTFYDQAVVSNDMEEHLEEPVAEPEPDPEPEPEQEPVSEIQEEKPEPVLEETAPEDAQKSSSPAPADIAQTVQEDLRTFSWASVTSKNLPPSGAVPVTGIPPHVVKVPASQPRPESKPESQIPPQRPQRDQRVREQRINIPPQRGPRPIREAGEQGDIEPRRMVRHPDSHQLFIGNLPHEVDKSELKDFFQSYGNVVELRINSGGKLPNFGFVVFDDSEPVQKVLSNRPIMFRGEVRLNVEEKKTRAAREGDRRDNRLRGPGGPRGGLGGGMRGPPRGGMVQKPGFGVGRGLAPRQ
Technique: RNA Bind-n-Seq
Form: RNA
Sample: in vitro
Tested at: 200 nM
Setting: whole 134-nt RNA, ends assumed
Added: 150 mM KCl
Baseline: input library
Direction: higher = stronger binding
Shared flanks, not repeated: GGGAGUUCUACAGUCCGACGAUC … UGGAAUUCUCGGGUGUCAAGG
Strand | log2 enrichment
UCCUGUGCUACACAUCGUAUGUACCGAAUCAAAUUUAAAUUUUUUUAAAUUUUUUUAAAAAAGUAUUAUGUUACGCCGUUCGGAUCUGCA | -0.763
UUUCAAAGCCAAAGGGCCUUGUGACGCCCCUCUUGCCCACCUCCCUCCACACCGUGUCCUCCCCUAUAUGACAAUCAAUGUGACCUCUCU | 0.434
UGGCCCUGGUGGCAUGCGGGGAGGAAGAGGUGGCCUCAUGGAUCGUGGUGGUCCCGGUGGAAUGCUCAGAGGUGGCCGUGGUGGAGACAG | 0.132
AAGUCCUGUGCUACACAUCGUAUGUACCGAAUCGGCCCCCGGCCCCCGGCCCCCGGGAAAGUAUUAUGUUACGCCGUUCGGAUCUGCACU | -0.381
UCCUGUGCUACACAUCGUAUGUACCGAAUCAAACCCCCCCAAAUUUUUAAACCCCCAAAAAAGUAUUAUGUUACGCCGUUCGGAUCUGCA | 0.00412
CUCAAGUCCUGUGCUACACAUCGUAUGUACCGAAUCGGCCGGGGCCGGGCCGGGAAAGUAUUAUGUUACGCCGUUCGGAUCUGCACUUCC | -0.423
CAAGUCCUGUGCUACACAUCGUAUGUACCGAAUCGGUUUGGGGUUUGGUUUGGGGAAAGUAUUAUGUUACGCCGUUCGGAUCUGCACUUC | -0.321
UGUGCUACACAUCGUAUGUACCGAAUCGGGGAAAAAAAGGGAAAAAAAGGGGAAAAAAAGGGGAAAGUAUUAUGUUACGCCGUUCGGAUC | -0.347
AAGUCCUGUGCUACACAUCGUAUGUACCGAAUCGGUUUUUUUGGUUUGGAAAAAGGAAAGUAUUAUGUUACGCCGUUCGGAUCUGCACUU | -1.57

Block 4
Target: CCND2, cyclin fold, Cln2 fusion (human)
Technique: yeast growth competition, sequencing
Sample: yeast
Setting: weak parent motif
Baseline: not given
Direction: higher = stronger binding
Starting sequence: CDC6 docking peptide (human); TLKGRRLVFDNQL
Substitution | normalised enrichment score
L7R | 0.268
G4M | 0.571
V8R | 0.425
G4C | 0.583
R5L | 0.269
K3V | 0.618
T1N | 0.47
L7V | -0.0306
L13A | 0.362
V8H | 0.254
N11G | 0.138
L2Y | 0.364
R6E | -0.289
V8A | -0.426
N11I | 0.196
F9N | -0.0602
D10P | -0.174

Mixed results
Substance | target | assay | system | conditions | scale | quantity | value
PhoQ, residues 284 288 289 292 302 303 NLCILV | PhoP, residues 12 14 15 18 19 LWHSL (Escherichia coli, UniProt P23836) | Sort-seq, refers to: YFP reporter | E. coli | PhoQ-PhoP variant library, added: 10 µM Mg2+ | baseline: high Mg2+ state, higher = stronger signaling | fold induction | 13.2 and 16.7

Repeated from above (mixed results):
Substance | target | assay | system | conditions | scale | quantity | value
PhoQ, residues 284 288 289 292 302 303 NLCILV | PhoP, residues 12 14 15 18 19 LWHSL (Escherichia coli, UniProt P23836) | Sort-seq, refers to: YFP reporter | E. coli | PhoQ-PhoP variant library, added: 10 µM Mg2+ | baseline: high Mg2+ state, higher = stronger signaling | fold induction | 13.2 and 16.7
